Experimental data gathered from unrelated publications.
Each line is one published result; not all experiments were run side by side.
HDAC1: Histone deacetylase 1 (HDAC1, Homo sapiens, UniProt Q13547)
UniProt Q13547, sequence (whole entry, looked up): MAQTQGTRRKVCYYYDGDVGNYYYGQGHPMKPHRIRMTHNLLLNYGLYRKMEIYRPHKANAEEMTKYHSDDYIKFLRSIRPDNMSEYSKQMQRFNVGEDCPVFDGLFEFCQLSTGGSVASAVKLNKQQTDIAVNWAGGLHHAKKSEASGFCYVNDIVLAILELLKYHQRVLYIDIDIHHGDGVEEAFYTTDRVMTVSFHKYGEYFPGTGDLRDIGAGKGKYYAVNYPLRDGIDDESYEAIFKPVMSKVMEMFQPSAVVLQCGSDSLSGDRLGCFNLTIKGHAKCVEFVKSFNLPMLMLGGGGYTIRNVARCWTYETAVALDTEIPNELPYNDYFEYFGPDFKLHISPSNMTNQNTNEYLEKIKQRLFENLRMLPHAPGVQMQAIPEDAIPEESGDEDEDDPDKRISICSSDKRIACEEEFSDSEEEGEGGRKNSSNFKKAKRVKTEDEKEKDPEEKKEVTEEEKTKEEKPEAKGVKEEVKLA
USP51: Ubiquitin carboxyl-terminal hydrolase 51 (USP51, Homo sapiens, UniProt Q70EK9)
UniProt Q70EK9, sequence (whole entry, looked up): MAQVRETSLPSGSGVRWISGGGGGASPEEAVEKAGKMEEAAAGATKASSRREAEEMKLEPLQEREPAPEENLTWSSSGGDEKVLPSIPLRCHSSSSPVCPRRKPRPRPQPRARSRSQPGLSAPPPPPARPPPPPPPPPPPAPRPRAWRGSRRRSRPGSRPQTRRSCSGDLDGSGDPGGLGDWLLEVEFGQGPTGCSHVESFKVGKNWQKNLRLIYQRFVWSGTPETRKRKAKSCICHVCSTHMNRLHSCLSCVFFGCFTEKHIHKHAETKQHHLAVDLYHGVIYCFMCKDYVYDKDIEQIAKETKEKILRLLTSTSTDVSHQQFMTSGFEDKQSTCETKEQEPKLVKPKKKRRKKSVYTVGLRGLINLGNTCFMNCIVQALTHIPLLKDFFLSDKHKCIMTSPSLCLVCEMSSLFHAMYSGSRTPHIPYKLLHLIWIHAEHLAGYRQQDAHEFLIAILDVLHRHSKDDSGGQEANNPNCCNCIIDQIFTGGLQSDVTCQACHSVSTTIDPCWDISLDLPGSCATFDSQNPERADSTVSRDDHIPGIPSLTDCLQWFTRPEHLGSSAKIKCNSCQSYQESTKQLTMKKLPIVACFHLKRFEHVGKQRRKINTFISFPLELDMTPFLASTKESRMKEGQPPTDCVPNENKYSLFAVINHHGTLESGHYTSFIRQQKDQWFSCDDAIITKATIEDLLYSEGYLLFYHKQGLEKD
SIRT6: NAD-dependent protein deacylase sirtuin-6 (SIRT6, Homo sapiens, UniProt Q8N6T7)
UniProt Q8N6T7, sequence (whole entry, looked up): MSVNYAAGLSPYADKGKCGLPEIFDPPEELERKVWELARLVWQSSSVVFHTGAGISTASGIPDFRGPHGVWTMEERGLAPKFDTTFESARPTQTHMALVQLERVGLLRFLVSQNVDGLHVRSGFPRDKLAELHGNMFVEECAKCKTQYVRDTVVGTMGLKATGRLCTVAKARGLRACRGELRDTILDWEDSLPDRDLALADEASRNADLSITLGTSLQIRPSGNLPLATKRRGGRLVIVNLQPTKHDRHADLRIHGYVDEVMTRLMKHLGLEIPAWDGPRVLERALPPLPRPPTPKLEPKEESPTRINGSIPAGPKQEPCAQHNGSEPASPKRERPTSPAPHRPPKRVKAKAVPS
PTGS2: Prostaglandin G/H synthase 2 (PTGS2, Homo sapiens, UniProt P35354)
UniProt P35354, sequence (whole entry, looked up): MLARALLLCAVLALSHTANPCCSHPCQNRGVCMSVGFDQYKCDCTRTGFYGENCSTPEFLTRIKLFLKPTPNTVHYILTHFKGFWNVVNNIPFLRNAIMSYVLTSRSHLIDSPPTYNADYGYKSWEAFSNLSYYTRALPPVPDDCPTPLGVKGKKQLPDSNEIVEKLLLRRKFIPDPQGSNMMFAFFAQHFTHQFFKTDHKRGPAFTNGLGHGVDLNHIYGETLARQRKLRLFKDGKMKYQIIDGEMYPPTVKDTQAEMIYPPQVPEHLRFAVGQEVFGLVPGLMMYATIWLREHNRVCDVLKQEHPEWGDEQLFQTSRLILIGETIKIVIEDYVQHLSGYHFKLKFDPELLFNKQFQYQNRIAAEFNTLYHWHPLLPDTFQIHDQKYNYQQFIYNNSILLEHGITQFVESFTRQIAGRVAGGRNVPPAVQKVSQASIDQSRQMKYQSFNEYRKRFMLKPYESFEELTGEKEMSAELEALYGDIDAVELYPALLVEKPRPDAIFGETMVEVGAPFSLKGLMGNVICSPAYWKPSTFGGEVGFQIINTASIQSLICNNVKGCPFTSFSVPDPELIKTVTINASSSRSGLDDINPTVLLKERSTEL
PDE10A: cAMP and cAMP-inhibited cGMP 3',5'-cyclic phosphodiesterase 10A (PDE10A, Homo sapiens, UniProt Q9Y233)
UniProt Q9Y233, sequence (whole entry, looked up): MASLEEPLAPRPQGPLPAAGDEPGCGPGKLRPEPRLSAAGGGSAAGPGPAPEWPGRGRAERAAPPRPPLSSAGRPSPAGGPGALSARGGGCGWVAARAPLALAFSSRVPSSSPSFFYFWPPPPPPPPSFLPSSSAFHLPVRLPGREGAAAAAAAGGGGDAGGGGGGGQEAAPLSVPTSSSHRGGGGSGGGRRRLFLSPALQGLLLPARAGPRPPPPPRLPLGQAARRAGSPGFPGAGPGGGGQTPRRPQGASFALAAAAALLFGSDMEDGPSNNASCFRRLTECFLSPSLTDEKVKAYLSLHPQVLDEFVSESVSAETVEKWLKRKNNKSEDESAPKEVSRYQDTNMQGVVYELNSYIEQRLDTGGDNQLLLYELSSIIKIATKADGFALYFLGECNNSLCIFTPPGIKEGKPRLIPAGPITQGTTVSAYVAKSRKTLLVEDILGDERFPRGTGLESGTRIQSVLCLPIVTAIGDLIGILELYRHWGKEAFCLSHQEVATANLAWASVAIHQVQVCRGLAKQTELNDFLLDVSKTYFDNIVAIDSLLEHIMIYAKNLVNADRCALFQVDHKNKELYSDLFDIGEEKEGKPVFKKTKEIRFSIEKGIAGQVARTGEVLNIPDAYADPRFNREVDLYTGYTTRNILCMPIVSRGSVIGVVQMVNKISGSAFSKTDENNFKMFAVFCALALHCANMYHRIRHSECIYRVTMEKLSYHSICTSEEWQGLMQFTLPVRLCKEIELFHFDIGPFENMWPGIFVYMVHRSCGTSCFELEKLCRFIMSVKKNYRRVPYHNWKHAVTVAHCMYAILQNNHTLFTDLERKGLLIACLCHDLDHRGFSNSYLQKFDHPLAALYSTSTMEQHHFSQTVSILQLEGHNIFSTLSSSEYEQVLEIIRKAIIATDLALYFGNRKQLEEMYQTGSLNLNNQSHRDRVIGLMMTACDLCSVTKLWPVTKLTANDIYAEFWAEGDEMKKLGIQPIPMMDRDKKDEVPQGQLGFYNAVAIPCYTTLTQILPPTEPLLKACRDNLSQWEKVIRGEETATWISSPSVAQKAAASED
SCN1A: Sodium channel protein type 1 subunit alpha (SCN1A, Homo sapiens, UniProt P35498)
SLC6A4: Sodium-dependent serotonin transporter (SLC6A4, Homo sapiens, UniProt P31645)
UniProt P31645, sequence (whole entry, looked up): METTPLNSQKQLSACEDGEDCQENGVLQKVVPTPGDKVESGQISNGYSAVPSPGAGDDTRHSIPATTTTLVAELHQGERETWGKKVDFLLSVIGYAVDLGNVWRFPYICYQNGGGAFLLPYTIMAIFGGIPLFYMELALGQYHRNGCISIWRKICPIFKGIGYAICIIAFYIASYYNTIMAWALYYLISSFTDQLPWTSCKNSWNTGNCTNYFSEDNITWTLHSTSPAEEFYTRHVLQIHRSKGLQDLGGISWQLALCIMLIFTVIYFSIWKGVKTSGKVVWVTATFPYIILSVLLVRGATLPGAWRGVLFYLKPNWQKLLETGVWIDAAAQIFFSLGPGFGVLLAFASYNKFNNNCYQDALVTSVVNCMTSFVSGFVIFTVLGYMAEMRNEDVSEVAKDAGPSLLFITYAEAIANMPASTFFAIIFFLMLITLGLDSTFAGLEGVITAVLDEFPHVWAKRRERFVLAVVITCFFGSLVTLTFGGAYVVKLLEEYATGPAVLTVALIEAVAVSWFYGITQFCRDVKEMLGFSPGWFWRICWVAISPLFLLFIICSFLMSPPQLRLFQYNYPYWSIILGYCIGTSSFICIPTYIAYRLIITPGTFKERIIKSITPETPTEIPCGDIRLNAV
UniProt P00519, sequence (whole entry, unmodified, looked up): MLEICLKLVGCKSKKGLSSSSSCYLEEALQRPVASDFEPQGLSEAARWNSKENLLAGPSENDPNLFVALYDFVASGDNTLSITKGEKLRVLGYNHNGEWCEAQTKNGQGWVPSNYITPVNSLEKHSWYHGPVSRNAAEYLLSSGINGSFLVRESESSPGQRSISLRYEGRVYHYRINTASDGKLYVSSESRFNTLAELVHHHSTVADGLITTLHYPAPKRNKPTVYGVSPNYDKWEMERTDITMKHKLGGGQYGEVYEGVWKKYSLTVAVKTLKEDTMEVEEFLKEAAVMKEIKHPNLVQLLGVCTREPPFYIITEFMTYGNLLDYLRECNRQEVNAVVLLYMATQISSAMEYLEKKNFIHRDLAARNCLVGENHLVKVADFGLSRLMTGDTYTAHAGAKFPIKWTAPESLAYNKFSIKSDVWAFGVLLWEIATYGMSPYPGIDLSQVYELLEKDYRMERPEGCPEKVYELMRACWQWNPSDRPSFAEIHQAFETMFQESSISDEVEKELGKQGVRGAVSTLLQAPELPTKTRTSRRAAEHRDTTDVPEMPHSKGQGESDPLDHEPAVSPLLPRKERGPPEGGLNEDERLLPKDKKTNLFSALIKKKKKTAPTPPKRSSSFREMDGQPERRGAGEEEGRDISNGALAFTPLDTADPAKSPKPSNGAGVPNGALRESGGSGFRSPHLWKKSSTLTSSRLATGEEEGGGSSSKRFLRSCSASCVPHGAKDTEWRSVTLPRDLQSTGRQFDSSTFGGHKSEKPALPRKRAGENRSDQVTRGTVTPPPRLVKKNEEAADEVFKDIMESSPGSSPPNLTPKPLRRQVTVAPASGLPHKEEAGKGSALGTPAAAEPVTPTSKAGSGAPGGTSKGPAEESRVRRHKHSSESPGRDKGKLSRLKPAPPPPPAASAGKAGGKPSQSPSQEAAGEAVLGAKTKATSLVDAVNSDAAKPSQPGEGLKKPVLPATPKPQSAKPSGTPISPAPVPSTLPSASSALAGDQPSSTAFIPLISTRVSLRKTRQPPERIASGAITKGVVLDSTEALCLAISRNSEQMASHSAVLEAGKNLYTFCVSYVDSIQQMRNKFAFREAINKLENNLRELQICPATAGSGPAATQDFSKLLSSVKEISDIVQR

CC(C)c1ccc(OS(=O)(=O)Oc2cc(F)cc(C(=O)NO)c2)cc1 — inhibition (HDAC1; enzyme activity, inhibitor, fluorescence; 5 µM): 6%
COc1ccc([C@H]2OC[C@H]3[C@@H]2CO[C@H]3c2ccc(O[C@@H]3O[C@H](CO)[C@@H](O)[C@H](O)[C@H]3O)c(OC)c2)cc1OC — inhibition (USP51; enzyme activity, inhibitor; 5 µM): 26%
CC[C@H](C)[C@H](NC(=O)[C@H](CCC(N)=O)NC(=O)[C@@H](NC(=O)[C@H](CCSC)NC(=O)[C@H](CCCCN)NC(=O)[C@H](CO)NC(=O)[C@@H](NC(=O)[C@H](CCSC)NC(=O)[C@H](CC(C)C)NC(=O)[C@H](CC(N)=O)NC(=O)[C@@H](NC(=O)[C@@H](NC(=O)[C@H](CO)NC(=O)[C@H](CC(C)C)NC(=O)[C@H](C)NC(=O)[C@H](CCCNC(=N)N)NC(=O)[C@H](CCC(=O)O)NC(=O)[C@H](Cc1ccc(O)cc1)NC(=O)[C@H](Cc1ccccc1)NC(=O)[C@H](C)NC(=O)[C@H](CC(N)=O)NC(=O)[C@@H](N)CCCCN)[C@@H](C)CC)[C@@H](C)CC)[C@@H](C)O)C(C)C)C(=O)N[C@@H](CC(N)=O)C(=O)N[C@H](C(=O)O)C(C)C — inhibition (GSK3B (Homo sapiens, UniProt P49841); enzyme activity, inhibitor, radiometric; 10 µM): -3%
O=c1oc2ccccc2c(O)c1Cc1c(O)c2ccccc2oc1=O — inhibition (USP51; enzyme activity, inhibitor; 5 µM): 0%
CC(=O)Nc1ccc(C(=O)NOCc2ccccc2)cc1 — inhibition (SIRT6; enzyme activity, inhibitor, fluorescence; 100 µM): 46%
C=C[C@@]1(C)C=C2CC[C@@H]3[C@](C)(CCC[C@@]3(C)C(=O)O)[C@H]2CC1 — inhibition (PTGS2; enzyme activity, inhibitor; 31.25 µg/mL): 100%
O=C1C[C@@H](c2ccc(O)cc2)Oc2cc(O)cc(O)c21 — inhibition (USP51; enzyme activity, inhibitor; 5 µM): 97%
CC(C)OCCn1c(=S)[nH]c(=O)c2[nH]ccc21 — inhibition (Myeloperoxidase (MPO, Homo sapiens, UniProt P05164); enzyme activity, inhibitor, fluorescence; 0.5556 µM): 93.9%
CC(=NNC(=O)c1cccnc1)c1ccc(Nc2nnc(-c3ccc(Cl)cc3)c3ccccc23)cc1 — viability (MCF7; cell growth or viability, MTT; 2.5 µM, 24 h): 14.8%
Nc1ccc(C(=O)NOCc2ccccc2)cc1 — inhibition (SIRT6; enzyme activity, inhibitor, fluorescence; 100 µM): 23%
NC/C(=C\F)COc1cccc(Cn2c(=S)[nH]c(=O)c3[nH]cnc32)c1 — inhibition (CYSLTR1 (Homo sapiens, UniProt Q9Y271); ligand displacement, radioligand; 10 µM): < 50%
C[C@H](CCC(=O)O)[C@H]1CC[C@H]2[C@@H]3[C@H](O)C[C@@H]4C[C@H](O)CC[C@]4(C)[C@H]3CC[C@]12C — inhibition (USP51; enzyme activity, inhibitor; 5 µM): 15%
Cc1cc(OS(=O)(=O)Oc2ccc(C(F)(F)F)cc2)cc(C(=O)NO)c1 — inhibition (HDAC1; enzyme activity, inhibitor, fluorescence; 10 µM): 13%
O=C(O)c1ccc(O)cc1 — inhibition (PTGS2; enzyme activity, inhibitor; 7.81 µg/mL): 82.1%
COc1ccc2nccc(Cc3cccc(-c4ccc(C5COC5)cc4)c3)c2c1 — inhibition (PDE10A; enzyme activity, inhibitor, FP; 0.1 µM): 14%
O=c1cc(-c2ccc(O)cc2)oc2cc(O)cc(O)c12 — inhibition (PTGS2; enzyme activity, inhibitor; 15.63 µg/mL): 100%
Cn1c(=O)c2[nH]cnc2n(C)c1=O — inhibition (SCN1A; ion current, inhibitor, patch clamp; 10 µM): -4.66%
Cc1cc([C@@H](C)Nc2ccccc2C(=O)O)c2nc(N3CCC(F)(F)CC3)c(C#N)c(=O)n2c1 — remaining binding (IGF1R (Homo sapiens, UniProt P08069); binding, competition with immobilised ligand; 10 µM): 100%
Cn1c(=O)c2[nH]cnc2n(C)c1=O — inhibition (USP51; enzyme activity, inhibitor; 5 µM): 0%
O=C(O)c1ccc(C(=O)NOCc2ccccc2)cc1 — inhibition (SIRT6; enzyme activity, inhibitor, fluorescence; 100 µM): 2.1%
CC12CC3CC(C)(C1)CC(N)(C3)C2 — inhibition (SCN1A; ion current, inhibitor, patch clamp; 10 µM): 12.4%
Cc1cc(OS(=O)(=O)Oc2ccc(Br)cc2)cc(C(=O)NO)c1 — inhibition (HDAC1; enzyme activity, inhibitor, fluorescence; 10 µM): 18%
CCCCCCC#Cc1cncc(-c2nnc(SCc3ccc(Cl)cc3)n2CCCN)c1 — inhibition (mraY (Staphylococcus aureus, UniProt Q2FZ93); cell-free assay, inhibitor; 250 µM): 34%
S=C(NN=Cc1ccc(N2CCCCC2)cc1)Nc1cccc(Cl)c1Cl — inhibition (DHFR (Homo sapiens, UniProt P00374); enzyme activity, inhibitor; 500 µM): 74.7%
COc1cc(-c2cncc3c2CN(C)Cc2cc(N4CCNCC4)ccc2-3)cc(OC)c1OC — remaining activity (MERTK (Homo sapiens, UniProt Q12866); enzyme activity, inhibitor; 1 µM): 120%
CC[C@H](C)[C@H](NC(=O)[C@H](CCC(N)=O)NC(=O)[C@H](CC(C)C)NC(=O)[C@H](CCSC)NC(=O)[C@H](CCCCN)NC(=O)[C@H](CO)NC(=O)[C@H](CO)NC(=O)[C@H](CCSC)NC(=O)[C@H](CC(C)C)NC(=O)[C@H](CC(N)=O)NC(=O)[C@@H](NC(=O)[C@@H](NC(=O)[C@H](CO)NC(=O)[C@H](CC(C)C)NC(=O)[C@H](CS)NC(=O)[C@H](CCCNC(=N)N)NC(=O)[C@H](CC(=O)O)NC(=O)[C@H](Cc1c[nH]c2ccccc12)NC(=O)[C@H](Cc1ccccc1)NC(=O)[C@H](C)NC(=O)[C@H](CCC(=O)O)NC(=O)[C@@H](N)CCCCN)C(C)C)[C@@H](C)CC)C(=O)N[C@@H](CC(N)=O)C(=O)N[C@@H](C)C(=O)O — inhibition (Cyclin-dependent kinase 5, with p35 (CDK5, Homo sapiens, UniProt Q00535); enzyme activity, inhibitor, radiometric; 10 µM): 2%
COc1cc2ccnc(Cc3cccc4ccccc34)c2cc1OC — inhibition (PDE10A; enzyme activity, inhibitor, FP; 0.1 µM): 18%
COc1cc([C@H]2OC[C@H]3[C@@H]2CO[C@@H]3c2cc(OC)c(O)c(OC)c2)cc(OC)c1O — inhibition (PTGS2; enzyme activity, inhibitor; 3.9 µg/mL): 75.3%
C#Cc1cc(-c2cc(Nc3nc(N[C@@H](C)c4ccc(F)cn4)ncc3Cl)n[nH]2)ccc1C=O — inhibition (RPS6KA5 (Homo sapiens, UniProt O75582); enzyme activity, inhibitor; 0.2 µM): 43.5%
S=C(Nc1ccccc1)Nc1ccc(Oc2nnc(-c3ccc(Cl)cc3)c3ccccc23)cc1 — viability (MCF7; cell growth or viability, MTT; 1.25 µM, 24 h): 56.7%
O=C(O)/C=C/C(=O)O — inhibition (USP51; enzyme activity, inhibitor; 5 µM): 10%
Cc1cc(OS(=O)(=O)Oc2ccc3ccccc3c2)cc(C(=O)NO)c1 — inhibition (HDAC1; enzyme activity, inhibitor, fluorescence; 5 µM): 7%
C=CC(=O)N1CCC(COCC(=O)N2CCN(c3nc(-c4cnc(N)nc4C(F)F)nc(N4CCOC[C@@H]4C)n3)CC2)CC1 — remaining binding (EPHB4 (Homo sapiens, UniProt P54760); binding, competition with immobilised ligand; 1 µM): 100%
C[C@H](O)C(=O)O — inhibition (USP51; enzyme activity, inhibitor; 5 µM): 28%
CCCCC(=O)Nc1ccc(-c2ccc3ncn(CCC)c(=O)c3c2)cn1 — remaining binding (Tyrosine-protein kinase ABL1, non-phosphorylated (ABL1, Homo sapiens, UniProt P00519, Q252H); binding, competition with immobilised ligand; 0.5 µM): 81%
CC(C)c1ccc(OS(=O)(=O)Oc2cccc(C(=O)NO)c2)cc1 — inhibition (HDAC1; enzyme activity, inhibitor, fluorescence; 10 µM): 46%
COc1cc2ncnc(Cc3cccc(-c4cccnc4)c3)c2cc1OC — inhibition (PDE10A; enzyme activity, inhibitor, FP; 0.1 µM): 75%
O=C(NO)c1cccc(OS(=O)(=O)Oc2ccc(-c3cccc(C(F)(F)F)c3)cc2)c1 — inhibition (HDAC1; enzyme activity, inhibitor, fluorescence; 10 µM): 47%
CNCCCC12CCC(c3ccccc31)c1ccccc12 — inhibition (SCN1A; ion current, inhibitor, patch clamp; 10 µM): 28.8%
O=S(=O)(Nc1nccs1)c1ccc(N=NN(O)c2ccccc2)cc1 — inhibition (ABTS scavenging; 180 µg/mL): 74.8%
CNc1ncc2c(/C=C/C(=O)N3CCC(OC)CC3)nn(Cc3cccc(C(F)(F)F)c3)c2n1 — remaining activity (PTK2B (Homo sapiens, UniProt Q14289); enzyme activity, inhibitor, radiometric; 1 µM): 93%
O[C@@H]1[C@H](O)[C@@H]2C[C@@H]2[C@H]1n1cnc2c(NCCC3CC3)ncnc21 — inhibition (SLC6A4; ligand displacement, radioligand; 10 µM): 6%
O[C@H]1[C@H](O)[C@@H](O)[C@H](O)[C@@H](O)[C@H]1O — inhibition (USP51; enzyme activity, inhibitor; 5 µM): 0%
Cc1cc(OS(=O)(=O)Oc2ccc(C(C)C)cc2)cc(C(=O)NO)c1 — inhibition (HDAC8 (Homo sapiens, UniProt Q9BY41); enzyme activity, inhibitor, fluorescence; 10 µM): 46%
CC(C)c1[nH]c2nc(N)nn2c(=O)c1Cc1cccc(Cl)c1Cl — inhibition (CCR5 (Homo sapiens, UniProt P51681); β-arrestin recruitment, antagonist; 1 µM): 85%
CN1CC(Oc2cnc(C#N)cc2-c2ccn3nc(NC(=O)C4CC4)cc3c2)C1 — inhibition (IKBKE (Homo sapiens, UniProt Q14164); enzyme activity, inhibitor; 1 µM): 7.5%
COc1cc(-c2cc(=O)c3c(O)cc(O)cc3o2)ccc1O — inhibition (PTGS2; enzyme activity, inhibitor; 1.95 µg/mL): 19.2%
Cc1c(OS(=O)(=O)Oc2ccc(C(F)(F)F)cc2)cccc1C(=O)NO — inhibition (HDAC1; enzyme activity, inhibitor, fluorescence; 5 µM): 7%
OC[C@@]12C[C@@H]1[C@@H](n1cnc3c(N[C@@H](C4CCC4)C4CC4)nc(C#Cc4ccc(Cl)s4)nc31)[C@H](O)[C@@H]2O — inhibition (SLC6A4; ligand displacement, radioligand; 10 µM): 23%

For quick reference, copied from above:
Cc1cc([C@@H](C)Nc2ccccc2C(=O)O)c2nc(N3CCC(F)(F)CC3)c(C#N)c(=O)n2c1 — remaining binding (IGF1R (Homo sapiens, UniProt P08069); binding, competition with immobilised ligand; 10 µM): 100%
Cn1c(=O)c2[nH]cnc2n(C)c1=O — inhibition (USP51; enzyme activity, inhibitor; 5 µM): 0%
O=C(O)c1ccc(C(=O)NOCc2ccccc2)cc1 — inhibition (SIRT6; enzyme activity, inhibitor, fluorescence; 100 µM): 2.1%
CC12CC3CC(C)(C1)CC(N)(C3)C2 — inhibition (SCN1A; ion current, inhibitor, patch clamp; 10 µM): 12.4%
Cc1cc(OS(=O)(=O)Oc2ccc(Br)cc2)cc(C(=O)NO)c1 — inhibition (HDAC1; enzyme activity, inhibitor, fluorescence; 10 µM): 18%
CCCCCCC#Cc1cncc(-c2nnc(SCc3ccc(Cl)cc3)n2CCCN)c1 — inhibition (mraY (Staphylococcus aureus, UniProt Q2FZ93); cell-free assay, inhibitor; 250 µM): 34%
